Assay results pooled from the literature.
Compare with care: the assays were run in different laboratories. Several values in a cell are separate wells, animals, samples, runs or records. Numbers after ± are the reported error.
CASP10: Caspase-10 (CASP10, Homo sapiens, UniProt Q92851)
CASP8: Caspase-8 (CASP8, Homo sapiens, UniProt Q14790)
ADRA1A: Alpha-1A adrenergic receptor (ADRA1A, Homo sapiens, UniProt P35348)

Structure (SMILES)	target	test	test system	setting	how to read	quantity	value
CC[C@H](C)[C@H](NC(=O)[C@@H](NC(=O)[C@@H](NC(=O)[C@@H](NC(=O)[C@@H](N)CCCCN)C(C)C)C(C)C)C(C)C)C(=O)N[C@H](C(N)=O)[C@@H](C)O	Microtubule-associated protein tau, PHF6* peptide (MAPT, Homo sapiens, UniProt P10636)	fibril formation, ThT fluorescence	–	5-fold of peptide, 240 min, pH 7.4, together with: Ac-PHF6* 25 µM, heparin	baseline: untreated	ThT fluorescence	1 ± 1%
CC[C@H](C)[C@@H]1NC(=O)[C@H](Cc2ccccc2)NC(=O)[C@H](CCC(=O)O)NC(=O)[C@H](CCCNC(=N)N)NC(=O)CNC(=O)[C@@H](NC(=O)[C@H](CC(C)C)NC(=O)[C@H](CCCNC(=N)N)NC(=O)[C@@H](NC(=O)CNC(=O)[C@H](Cc2ccc(O)cc2)NC(=O)[C@@H]2CCCN2C(=O)[C@H](C)NC(=O)[C@H](C)NC(=O)[C@@H](N)CCCNC(=N)N)C(C)C)CSSC[C@@H]2NC(=O)[C@@H](NC(=O)[C@H](CO)NC(=O)[C@H](CO)NC(=O)[C@H](CO)NC(=O)[C@H](CC(C)C)NC(=O)CNC(=O)[C@H](C)NC(=O)[C@H](CC(C)C)NC(=O)[C@@H](NC(=O)[C@@H](N)CC(=O)O)C(C)C)CSSC[C@H](NC(=O)CNC(=O)[C@H](Cc3c[nH]c4ccccc34)NC(=O)[C@H](CCCCN)NC2=O)C(=O)N[C@@H](CO)C(=O)N[C@@H](CCCCN)C(=O)N[C@@H](CO)C(=O)N[C@@H](CCC(=O)O)C(=O)N[C@@H]([C@@H](C)CC)C(=O)N[C@@H](CO)C(=O)N[C@@H](CO)C(=O)N[C@@H](CC(C)C)C(=O)N[C@H](C(=O)O)CSSC[C@@H](C(=O)NCC(=O)NCC(=O)N[C@@H](CO)C(=O)N[C@@H](CCCNC(=N)N)C(=O)N[C@@H](Cc2c[nH]c3ccccc23)C(=O)O)NC(=O)[C@H]([C@@H](C)O)NC(=O)[C@H](Cc2ccccc2)NC(=O)[C@H]([C@@H](C)CC)NC(=O)[C@H](C(C)C)NC(=O)[C@H](C)NC(=O)[C@H](CCCNC(=N)N)NC1=O	RXFP4 (Homo sapiens, UniProt Q8TDU9, W279A)	–	–	W279A mutant	baseline: wild type	change in Emax	-57.6% and -52.7% and -68.6%
CC(=O)N[C@@H](CC(C)C)C(=O)N[C@H](C(=O)N[C@@H](C)C(=O)N[C@@H](CC(=O)O)C(=O)COC(=O)c1c(C)cccc1C)C(C)(C)C	CASP10	enzyme activity, inhibitor	–	–	–	kinact/KI	350000 M⁻¹ s⁻¹
O=C(COc1cccc(Cl)c1Cl)Nc1cc(C2CC2)nn1CC(F)(F)F	Kir3.1/Kir3.4 (Homo sapiens, UniProt P48544+P48549)	thallium flux, activator	HEK293	–	baseline: standard compound	Emax	54%
CC1(C)C[N+]2=Cc3ccc4[n]3[Au-]23[n]2c(ccc2-c2nc5ccccc5nc2-4)C=[N+]3C1.F[P-](F)(F)(F)(F)F	DNA topoisomerase 1 (TOP1, Homo sapiens, UniProt P11387)	–	–	–	–	Hill coefficient	1.8
CN(C)CCCSC(=S)N1CCN(C(=O)/C=C/c2coc3ccccc3c2=O)CC1	Nucleoprotein (N, Tomato spotted wilt virus, UniProt P25999)	binding, microscale thermophoresis	–	0.2441 µM	dose series	normalised MST response	-0.00155
CC(C)[C@@H]1NC(=O)[C@H](Cc2ccccc2)NC(=O)CSC[C@@H](C(N)=O)NC(=O)[C@H](CCC(=O)O)NC(=O)[C@H](CO)NC(=O)[C@H](Cc2c[nH]c3cccc(Cl)c23)NC(=O)[C@H](C2CCCCC2)NC(=O)[C@H](C(C)C)NC(=O)[C@H](Cc2ccc(O)cc2)NC(=O)[C@H](CC(=O)O)NC(=O)[C@H](Cc2c[nH]c3ccccc23)NC(=O)[C@H](Cc2ccc(N)nc2)NC(=O)[C@H](Cc2c[nH]c3ccc(Cl)cc23)NC(=O)[C@H](CCC(=O)O)NC1=O	Interleukin-1 receptor-like 2 (IL1RL2, Homo sapiens, UniProt Q9HB29)	reporter gene (SEAP), inhibitor, HEK-Blue IL-36R reporter	HEK-Blue IL-36R cells	11.11 µM, 6 h, together with: IL-36γ 100 ng/mL	–	remaining activity	82.1%
O=C(O)c1ccc(-c2coc3cc(O)ccc3c2=O)cc1	HSD3B1 (Homo sapiens, UniProt P14060)	[3H]-DHEA conversion	LNCaP	0.1 µM, normalized to protein, unit not given	baseline: vehicle	DHEA metabolism	0
CC1(C)C[C@@H](Nc2cccc(-c3sc(C(=O)O)c(OCC(=O)O)c3Cl)c2)CCN1S(=O)(=O)Cc1cccc(NC(=O)CN2CCC(c3ccc4c(c3)oc(=O)n4C3CCC(=O)NC3=O)CC2)c1 (stereo partly shown)	Tyrosine-protein phosphatase non-receptor type 1 (Mus musculus, UniProt P35821)	degrader, Western blot	B16-F10	0.0001 µM	–	remaining protein	112% and 99.4%
CC(=O)N1CCC[C@H]1C(=O)N[C@@H](CCC(N)=O)C(=O)N[C@@H](C)C(=O)N[C@@H](CC(=O)O)C(=O)COC(=O)c1c(C)cccc1C	CASP8	enzyme activity, inhibitor	–	–	–	kinact/KI	145000 M⁻¹ s⁻¹
CCCCCC=CC=C1C(=O)C=CC1CC=CCCCC(=O)O (stereo not shown)	Exportin-2 (Homo sapiens, UniProt P55060)	competitive isoTOP-ABPP, item: CSE1L cysteine peptide	Ramos soluble proteome	100 µM, together with: iodoacetamide probe	baseline: DMSO over compound-treated, higher = stronger cysteine blockade	isoTOP-ABPP competition ratio	1.5
CCc1ccc2oc(=O)cc(Cn3ccnc3)c2c1	ADRA1A	intracellular Ca2+ mobilization, agonist	COS-7	500 µM	baseline: 3 µM ionomycin	agonist activity	13.9 ± 6.44%
C=C1C(=O)C2(C(=O)N3CCN(c4ccccc4)CC3)CC(=O)CC1C2 (racemic)	PTPN11 (Homo sapiens, UniProt Q06124)	enzyme activity, covalent inhibitor	–	together with: pNPP substrate	–	kinact/KI	39.6 M⁻¹ s⁻¹
CC(=O)N[C@H](C(=O)N[C@@H](CCC(=O)O)C(=O)N[C@@H](C)C(=O)N[C@@H](CC(=O)O)C(=O)COC(=O)c1c(C)cccc1C)C(C)C	CASP10	enzyme activity, inhibitor	–	–	–	kinact/KI	308000 M⁻¹ s⁻¹
Cc1ncsc1-c1ccc(CNC(=O)[C@@H]2C[C@@H](O)CN2C(=O)[C@@H](NC(=O)COCC(C)(COCCOCCOCCNC(=O)C[C@@H]2N=C(c3ccc(Cl)cc3)c3c(sc(C)c3C)-n3c(C)nnc32)COCCOCCOCCNC(=O)C[C@@H]2N=C(c3ccc(Cl)cc3)c3c(sc(C)c3C)-n3c(C)nnc32)C(C)(C)C)cc1	BRD4/VHL, BD1 (Homo sapiens, UniProt O60885+P40337)	ternary complex binding, SPR single-cycle kinetics	–	together with: BRD4 bromodomains	–	% Rmax	53 ± 5%
CCCCCCCCCCCCC/C=C/C=O	Gasdermin-D (GSDMD, Homo sapiens, UniProt P57764)	competitive isoTOP-ABPP, item: GSDMDC1 cysteine peptide	proteome, soluble, MDA-MB-231	100 µM, together with: iodoacetamide probe	baseline: DMSO over compound-treated, higher = stronger cysteine blockade	isoTOP-ABPP competition ratio	1
CC(C=CC=C(C)C=CC1=C(C)CCCC1(C)C)=CC=O	Rhodopsin (RHO, Homo sapiens, UniProt P08100, E181K)	ER retention, immunostaining co-localization, item: opsin with calnexin	COS-7 transfected E181K	30.00 µM	–	Pearson correlation coefficient	0.46
COc1ncc2nc(C)n(Cc3ncc(S(N)(=O)=O)cc3F)c2c1-c1ccccc1	ADRA1A	agonist, cell-based	–	10 µM	–	activation	4.67%
N[C@H]1CC[C@H](Nc2nccc(-c3cccnc3Oc3ccc(NC(=O)NC4CC4)c4ccccc34)n2)CC1	PARP1 (Homo sapiens, UniProt P09874)	kinobead competition pulldown	HEK293/HCT116 lysate mixture	10 µM, 1 h, 4 °C	lower = stronger competition	log2 LFQ intensity	23.3 and 23.4 and 23.7 and 23.8
O=C1c2sc(-c3ccc(N4CCC(CO)CC4)nc3F)nc2CCN1c1cccnc1	TAR DNA-binding protein 43, aggregated (TARDBP, Homo sapiens, UniProt Q13148)	radioligand binding	human, FTLD-TDP type C sarkosyl-insoluble extract	18.97 nM	–	specific binding	0.258 nM and 0.154 nM and 0.23 nM
O=C(N1CCCC1)n1cc(-c2ccc(-c3ccccc3)cc2)nn1	Platelet-activating factor acetylhydrolase 2, cytoplasmic (Mus musculus, UniProt Q8VDG7)	probe labelling, inhibitor, competitive ABPP-SILAC	mouse T cells	concentration not given, 4 h, single peptide	baseline: treated over DMSO cells, lower = stronger inhibition	SILAC activity ratio	0
CC(=O)N[C@H](C(=O)N[C@@H](CCCC(=O)O)C(=O)N[C@@H](CCC1CCCCC1)C(=O)N[C@@H](CC(=O)O)C(=O)COC(=O)c1c(C)cccc1C)C(C)(C)C	CASP8	enzyme activity, inhibitor	–	–	–	kinact/KI	1.43e+06 M⁻¹ s⁻¹
CO[C@@H]1[C@H](O)[C@@H](COP(=O)(O)OP(=O)([O-])C(Cl)(Cl)P(=O)(O)OP(=O)(O)OC[C@H]2O[C@@H](n3cnc4c(=O)[nH]c(N)nc43)[C@H](O)[C@@H]2O)O[C@H]1n1c[n+](C)c2c(O)nc(N)nc21	DCPS (Homo sapiens, UniProt Q96C86)	substrate, HPLC	–	concentration not given, 120 min	–	hydrolysis	0%
CSCC[C@@H]1NC(=O)[C@H](C(C)C)NC(=O)[C@H](CCCNC(=N)N)NC(=O)[C@@H]2CCCN2C(=O)CNC(=O)[C@@H](NC(=O)CNC(=O)[C@H](CO)NC(=O)CNC(=O)[C@H](CO)NC(=O)CCCC[C@@H]2SC[C@@H]3NC(=O)N[C@@H]32)CSSC[C@@H](C(N)=O)NC(=O)[C@@H]2CCCN2C(=O)CNC(=O)[C@H](CCC(=O)O)NC(=O)[C@H](CC(=O)O)NC(=O)[C@H](CC(=O)O)NC(=O)CNC(=O)[C@H](CC(C)C)NC(=O)[C@H](Cc2c[nH]cn2)NC(=O)[C@H](CC(C)C)NC(=O)CNC(=O)[C@H](Cc2c[nH]cn2)NC1=O	Col1a1/Col1a2 (Rattus norvegicus, UniProt P02454+P02466)	binding, bio-layer interferometry	biotinylated peptide on streptavidin biosensor	together with: collagen 0 to 8 µM	–	koff	0.0068 s⁻¹
Cc1cn(CC(=O)N(CC(=O)N[C@H]2CCC[C@@H]2N(CC(=O)N[C@H]2COC[C@@H]2N(CC(=O)N[C@H]2COC[C@@H]2N(CC(=O)N[C@H]2COC[C@@H]2N(CC(=O)NCCOCCOCC(N)=O)C(=O)Cn2cnc3c(N)ncnc32)C(=O)Cn2cc(C)c(=O)[nH]c2=O)C(=O)Cn2cnc3c(N)ncnc32)C(=O)Cn2cnc3c(=O)[nH]c(N)nc32)[C@H]2CCC[C@@H]2NC(=O)CN(C(=O)Cn2cnc3c(=O)[nH]c(N)nc32)[C@H]2CCC[C@@H]2NC(=O)CN(C(=O)Cn2cc(C)c(=O)[nH]c2=O)[C@H]2COC[C@@H]2NC(=O)CN(C(=O)Cn2cnc3c(N)ncnc32)[C@H]2COC[C@@H]2NC(=O)CN(C(=O)Cn2cnc3c(=O)[nH]c(N)nc32)[C@H]2COC[C@@H]2N)c(=O)[nH]c1=O	complementary DNA	duplex formation, UV melting curve fit	PBS	1 µM	–	ΔH	-76.4 ± 1.9 kcal/mol
C[Si](C)(C)C[C@H](CN)CC(=O)O	GALR2 (Homo sapiens, UniProt O43603)	enzyme activity, inhibitor	–	250 µM	–	inhibition	-8%
CC(=O)N[C@@H](CC(=O)O)C(=O)N[C@@H](CC(C)C)C(=O)N[C@H](C(=O)N[C@@H](C)C(=O)N[C@@H](CC(=O)O)C(=O)COC(=O)c1c(C)cccc1C)[C@@H](C)O	CASP10	inhibitor	–	recombinant enzyme	–	kobs/[I]	144000 M⁻¹ s⁻¹
Cc1cc(C)cc(COc2cc3c(cc2OCc2cc(C)cc(C)c2)C2CC(O)(Cc4cn(CCOCCOCCNC(=O)CCCCC5SCC6NC(=O)NC65)nn4)CC(C)N2CC3)c1 (stereo not shown)	Cytochrome b5 type B (CYB5B, Homo sapiens, UniProt O43169)	biotinylated probe pull-down, item: CYB5B	–	10 µM probe	baseline: heavy over light	SILAC ratio	2.83

Repeated from above:
Structure (SMILES)	target	test	test system	setting	how to read	quantity	value
CC1(C)C[N+]2=Cc3ccc4[n]3[Au-]23[n]2c(ccc2-c2nc5ccccc5nc2-4)C=[N+]3C1.F[P-](F)(F)(F)(F)F	DNA topoisomerase 1 (TOP1, Homo sapiens, UniProt P11387)	–	–	–	–	Hill coefficient	1.8
CCCCCCCCCCCCC/C=C/C=O	Gasdermin-D (GSDMD, Homo sapiens, UniProt P57764)	competitive isoTOP-ABPP, item: GSDMDC1 cysteine peptide	proteome, soluble, MDA-MB-231	100 µM, together with: iodoacetamide probe	baseline: DMSO over compound-treated, higher = stronger cysteine blockade	isoTOP-ABPP competition ratio	1
O=C(O)c1ccc(-c2coc3cc(O)ccc3c2=O)cc1	HSD3B1 (Homo sapiens, UniProt P14060)	[3H]-DHEA conversion	LNCaP	0.1 µM, normalized to protein, unit not given	baseline: vehicle	DHEA metabolism	0
